Published values pooled from the literature.
Protocols differ between the studies behind these lines.
TMPRSS2: Transmembrane protease serine 2 (TMPRSS2, Homo sapiens, UniProt O15393)
Sequence of UniProt O15393 (whole entry, looked up): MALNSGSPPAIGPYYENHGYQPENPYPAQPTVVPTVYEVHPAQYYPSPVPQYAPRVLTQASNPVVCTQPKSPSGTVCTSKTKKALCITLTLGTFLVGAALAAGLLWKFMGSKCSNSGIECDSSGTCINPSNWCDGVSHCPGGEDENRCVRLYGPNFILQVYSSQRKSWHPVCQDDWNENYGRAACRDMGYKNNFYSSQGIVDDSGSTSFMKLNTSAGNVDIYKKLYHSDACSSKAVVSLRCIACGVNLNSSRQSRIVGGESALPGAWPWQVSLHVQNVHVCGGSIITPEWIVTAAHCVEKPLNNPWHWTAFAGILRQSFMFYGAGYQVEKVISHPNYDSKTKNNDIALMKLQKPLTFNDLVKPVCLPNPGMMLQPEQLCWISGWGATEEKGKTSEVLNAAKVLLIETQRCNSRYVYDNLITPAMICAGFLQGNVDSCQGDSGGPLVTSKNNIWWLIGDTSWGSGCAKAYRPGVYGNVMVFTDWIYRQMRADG
Sequence of UniProt P21554 (whole entry, looked up): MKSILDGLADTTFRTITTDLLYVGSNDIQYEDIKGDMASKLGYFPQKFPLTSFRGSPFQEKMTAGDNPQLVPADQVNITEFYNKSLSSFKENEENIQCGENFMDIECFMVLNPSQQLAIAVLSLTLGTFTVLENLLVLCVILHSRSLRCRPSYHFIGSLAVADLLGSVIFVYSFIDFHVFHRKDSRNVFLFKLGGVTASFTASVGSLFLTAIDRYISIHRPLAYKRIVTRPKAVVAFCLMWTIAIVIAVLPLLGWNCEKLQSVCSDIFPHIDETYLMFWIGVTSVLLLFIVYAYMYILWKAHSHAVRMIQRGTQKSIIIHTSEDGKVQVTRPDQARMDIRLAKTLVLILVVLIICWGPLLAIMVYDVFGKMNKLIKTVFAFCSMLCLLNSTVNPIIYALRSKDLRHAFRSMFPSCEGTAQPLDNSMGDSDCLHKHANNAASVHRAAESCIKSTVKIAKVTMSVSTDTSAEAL
Sequence of UniProt Q9Y5S2 (whole entry, looked up): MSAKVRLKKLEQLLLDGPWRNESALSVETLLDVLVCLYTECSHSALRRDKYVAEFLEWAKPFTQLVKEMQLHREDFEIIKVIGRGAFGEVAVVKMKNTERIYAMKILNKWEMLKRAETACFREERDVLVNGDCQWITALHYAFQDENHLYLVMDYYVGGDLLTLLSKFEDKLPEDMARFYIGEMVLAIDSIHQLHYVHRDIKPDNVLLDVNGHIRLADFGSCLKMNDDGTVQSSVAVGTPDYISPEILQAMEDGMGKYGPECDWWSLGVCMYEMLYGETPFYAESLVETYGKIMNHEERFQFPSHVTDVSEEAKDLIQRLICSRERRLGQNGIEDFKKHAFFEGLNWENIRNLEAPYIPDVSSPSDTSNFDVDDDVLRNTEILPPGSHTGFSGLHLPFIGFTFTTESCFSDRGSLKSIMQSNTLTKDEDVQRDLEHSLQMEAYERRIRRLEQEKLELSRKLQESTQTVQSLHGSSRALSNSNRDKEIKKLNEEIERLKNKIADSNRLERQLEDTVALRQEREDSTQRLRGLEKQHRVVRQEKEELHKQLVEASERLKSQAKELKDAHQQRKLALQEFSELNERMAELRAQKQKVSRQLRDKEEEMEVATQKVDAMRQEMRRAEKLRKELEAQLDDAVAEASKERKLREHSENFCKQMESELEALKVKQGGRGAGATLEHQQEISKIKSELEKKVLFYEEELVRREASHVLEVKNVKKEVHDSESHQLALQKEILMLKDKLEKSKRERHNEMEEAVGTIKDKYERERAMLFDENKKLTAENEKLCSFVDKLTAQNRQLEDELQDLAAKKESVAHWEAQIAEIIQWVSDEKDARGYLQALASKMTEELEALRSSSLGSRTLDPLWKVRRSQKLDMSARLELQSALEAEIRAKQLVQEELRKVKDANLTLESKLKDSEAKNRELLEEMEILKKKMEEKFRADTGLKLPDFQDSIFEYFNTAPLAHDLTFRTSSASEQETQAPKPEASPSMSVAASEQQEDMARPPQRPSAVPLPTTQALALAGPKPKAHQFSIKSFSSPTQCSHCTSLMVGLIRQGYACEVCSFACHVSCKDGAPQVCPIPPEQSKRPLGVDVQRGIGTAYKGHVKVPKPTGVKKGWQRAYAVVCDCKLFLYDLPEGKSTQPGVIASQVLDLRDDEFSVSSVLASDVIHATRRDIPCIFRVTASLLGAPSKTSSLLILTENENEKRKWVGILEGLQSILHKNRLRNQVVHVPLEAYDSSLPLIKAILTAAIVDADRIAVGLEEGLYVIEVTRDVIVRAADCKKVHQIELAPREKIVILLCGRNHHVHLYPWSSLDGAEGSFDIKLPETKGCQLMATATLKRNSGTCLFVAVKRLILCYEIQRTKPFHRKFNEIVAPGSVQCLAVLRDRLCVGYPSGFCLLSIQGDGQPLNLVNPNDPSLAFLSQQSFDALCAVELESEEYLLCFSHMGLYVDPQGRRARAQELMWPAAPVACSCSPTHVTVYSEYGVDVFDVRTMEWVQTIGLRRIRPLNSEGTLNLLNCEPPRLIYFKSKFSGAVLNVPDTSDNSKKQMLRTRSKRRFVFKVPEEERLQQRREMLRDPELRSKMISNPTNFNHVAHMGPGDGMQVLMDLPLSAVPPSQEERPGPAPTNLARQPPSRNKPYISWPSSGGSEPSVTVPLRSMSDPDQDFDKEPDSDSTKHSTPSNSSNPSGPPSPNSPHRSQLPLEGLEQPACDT
Sequence of UniProt P07711 (whole entry, looked up): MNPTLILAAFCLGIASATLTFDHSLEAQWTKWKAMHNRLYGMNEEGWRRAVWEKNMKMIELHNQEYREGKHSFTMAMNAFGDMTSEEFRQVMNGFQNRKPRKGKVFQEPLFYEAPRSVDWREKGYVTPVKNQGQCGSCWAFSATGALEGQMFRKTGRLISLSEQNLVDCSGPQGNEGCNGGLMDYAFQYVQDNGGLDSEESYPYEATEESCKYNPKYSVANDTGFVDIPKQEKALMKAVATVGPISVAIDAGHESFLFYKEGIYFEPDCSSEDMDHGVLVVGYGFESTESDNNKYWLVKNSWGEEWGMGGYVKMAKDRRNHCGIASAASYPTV
Sequence of UniProt Q13976 (whole entry, looked up): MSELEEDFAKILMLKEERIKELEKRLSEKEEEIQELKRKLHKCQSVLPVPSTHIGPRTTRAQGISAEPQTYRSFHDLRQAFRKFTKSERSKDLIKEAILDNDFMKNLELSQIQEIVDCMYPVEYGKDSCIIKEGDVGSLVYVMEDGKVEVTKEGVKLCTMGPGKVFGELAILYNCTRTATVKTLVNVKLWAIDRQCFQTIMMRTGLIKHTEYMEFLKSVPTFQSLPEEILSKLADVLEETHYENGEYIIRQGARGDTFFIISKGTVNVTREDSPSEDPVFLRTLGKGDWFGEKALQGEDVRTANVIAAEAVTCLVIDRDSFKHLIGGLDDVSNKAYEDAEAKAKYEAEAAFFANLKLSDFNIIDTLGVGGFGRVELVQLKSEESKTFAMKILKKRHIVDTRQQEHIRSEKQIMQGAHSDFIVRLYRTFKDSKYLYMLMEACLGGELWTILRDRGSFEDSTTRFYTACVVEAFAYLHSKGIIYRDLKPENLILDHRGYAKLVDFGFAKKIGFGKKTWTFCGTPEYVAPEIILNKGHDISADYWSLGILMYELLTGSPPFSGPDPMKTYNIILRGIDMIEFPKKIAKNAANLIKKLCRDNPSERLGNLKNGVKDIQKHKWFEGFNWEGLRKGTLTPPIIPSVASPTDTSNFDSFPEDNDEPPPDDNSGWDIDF
Sequence of UniProt P42338 (whole entry, looked up): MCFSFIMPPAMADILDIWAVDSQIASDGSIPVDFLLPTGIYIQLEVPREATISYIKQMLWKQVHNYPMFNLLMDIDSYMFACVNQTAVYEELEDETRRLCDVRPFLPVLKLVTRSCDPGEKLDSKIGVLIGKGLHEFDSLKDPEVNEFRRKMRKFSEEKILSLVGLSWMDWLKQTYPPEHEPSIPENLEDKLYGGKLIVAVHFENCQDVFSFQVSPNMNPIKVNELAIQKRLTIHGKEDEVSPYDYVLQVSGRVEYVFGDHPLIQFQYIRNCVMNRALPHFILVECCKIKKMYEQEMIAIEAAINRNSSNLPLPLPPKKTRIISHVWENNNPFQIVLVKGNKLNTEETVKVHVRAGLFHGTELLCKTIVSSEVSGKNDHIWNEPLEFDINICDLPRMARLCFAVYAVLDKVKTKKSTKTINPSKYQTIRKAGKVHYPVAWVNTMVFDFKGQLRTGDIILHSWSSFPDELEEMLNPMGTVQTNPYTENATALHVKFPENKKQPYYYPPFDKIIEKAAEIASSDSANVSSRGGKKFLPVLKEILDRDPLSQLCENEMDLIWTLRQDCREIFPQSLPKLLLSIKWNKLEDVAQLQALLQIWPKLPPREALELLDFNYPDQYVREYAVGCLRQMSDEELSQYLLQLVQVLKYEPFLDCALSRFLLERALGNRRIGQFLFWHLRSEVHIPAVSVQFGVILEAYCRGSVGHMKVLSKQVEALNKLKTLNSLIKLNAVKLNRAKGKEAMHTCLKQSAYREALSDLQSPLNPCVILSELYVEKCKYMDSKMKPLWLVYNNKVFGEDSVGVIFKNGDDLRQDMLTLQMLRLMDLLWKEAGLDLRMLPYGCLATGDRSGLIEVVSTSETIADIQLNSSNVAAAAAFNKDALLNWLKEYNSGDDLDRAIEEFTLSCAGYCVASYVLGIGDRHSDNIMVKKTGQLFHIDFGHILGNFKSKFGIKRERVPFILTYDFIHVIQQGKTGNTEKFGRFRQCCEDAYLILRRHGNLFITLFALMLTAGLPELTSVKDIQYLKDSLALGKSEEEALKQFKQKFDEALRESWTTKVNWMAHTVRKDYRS

| SMILES | tested on | test | test system | setting | measurement | result |
| --- | --- | --- | --- | --- | --- | --- |
| CCCC(CCC)C(=O)N[C@@H](CCC(N)=O)C(=O)N[C@@H](Cc1ccccc1)C(=O)N[C@@H](CCCNC(=N)N)C(=O)c1nc2ccccc2s1 | TMPRSS2 | enzyme activity, inhibitor | – | 1 nM | activity vs control | 63% |
| Cc1nn(C)cc1-c1nc2c(N3CCN(Cc4ccc(Cl)cc4)CC3)c(Cl)cnc2[nH]1 | KIT (Homo sapiens, UniProt P10721, V559D/V654A) | binding, competition with immobilised ligand | – | 1 µM | remaining binding | 83% |
| N.N.[Cl][Pt][Cl] | U2932 | cell growth or viability, ATP luminescence | – | 10 µM, 72 h | inhibition | 97% |
| [2H]c1c([2H])c([C@]2([2H])CCCN2C(=O)C(C)(C)Oc2ccc3cn[nH]c3c2)c([2H])c([2H])c1C([2H])([2H])[2H] | MARK2 (Homo sapiens, UniProt Q7KZI7) | binding, competition with immobilised ligand | – | 1 µM | remaining binding | 83% |
| COc1cnc(OC)n2nc(NS(=O)(=O)c3c(OCC(F)F)cccc3C(F)(F)F)nc12 | L02 | cell growth or viability, CCK-8 | – | 3.13 µM, 72 h | inhibition | 0% |
| CC(C)[C@H](NC(=O)[C@H](CCc1ccccc1)NC(=O)CCc1ccccc1)C(=O)N[C@@H](CCCNC(=N)N)C(=O)c1nc2ccccc2s1 | TMPRSS2 | enzyme activity, inhibitor | – | 1 nM | activity vs control | 71% |
| COc1ncccc1-c1cnn2ccc(N3CCN(C(=O)OC(C)C)CC3)nc12 | CDC42BPB (Homo sapiens, UniProt Q9Y5S2) | binding, competition with immobilised ligand | – | 1 µM | remaining binding | 90% |
| NC(=O)[C@H](Cc1ccccc1)NC(=O)[C@H](Cc1c[nH]c2ccccc12)NC(=O)[C@@H]1CCCN1C(=O)[C@@H](N)Cc1ccc(O)cc1 | Procathepsin L (CTSL, Homo sapiens, UniProt P07711) | enzyme activity, inhibitor | – | 100 µM | remaining activity | 96.3% |
| CC(C)[C@H](NC(=O)[C@H](Cc1ccc(O)cc1)NC(=O)CCc1ccccc1)C(=O)N[C@@H](CCCNC(=N)N)C(=O)c1nc2ccccc2s1 | TMPRSS2 | enzyme activity, inhibitor | – | 1 nM | activity vs control | 86% |
| CC[C@H](C)[C@H](NC(=O)[C@H](Cc1ccccc1)NC(=O)[C@H](CCC(=O)O)NC(=O)[C@H](CCCNC(=N)N)NC(=O)[C@H](C)NC(=O)[C@H](C)NC(=O)[C@H](CCC(N)=O)NC(=O)[C@H](CCC(=O)O)NC(=O)[C@H](CCC(=O)O)NC(=O)[C@H](CC(C)C)NC(=O)[C@H](Cc1ccc(O)cc1)NC(=O)[C@H](CO)NC(=O)[C@H](CO)NC(=O)[C@@H](NC(=O)[C@H](CC(=O)O)NC(=O)[C@H](CO)NC(=O)[C@@H](NC(=O)[C@H](Cc1ccccc1)NC(=O)[C@@H](NC(=O)CNC(=O)[C@H](CCC(=O)O)NC(=O)[C@H](C)NC(=O)CCc1c[nH]cn1)[C@@H](C)O)[C@@H](C)O)C(C)C)C(=O)N[C@@H](C)C(=O)N[C@@H](Cc1c[nH]c2ccccc12)C(=O)N[C@@H](CC(C)C)C(=O)N[C@H](C(=O)N[C@@H](CCCNC(=N)N)C(=O)NCC(=O)N[C@@H](CCCNC(=N)N)C(=O)N[C@@H](CCCCNC(=O)COCCOCCNC(=O)COCCOCCNC(=O)CC[C@H](NC(=O)CCCCCCCCCCCCCCCCC(=O)O)C(=O)O)C(=O)NCC(=O)NCC(=O)N[C@@H](CO)C(=O)N[C@@H](CCCCNc1c(NCCCCCN(O)C(=O)CCC(=O)NCCCCCN(O)C(=O)CCC(=O)NCCCCCN(O)C(C)=O)c(=O)c1=O)C(=O)O)C(C)C | – | – | rat, plasma | subcutaneous, 20 nmol/kg | half-life | 8.2 h |
| C#Cc1n[nH]c2c(-c3cn(C(C)c4ccccn4)c(=O)[nH]c3=O)cc(F)cc12 (stereo not drawn) | PRKG1 (Homo sapiens, UniProt Q13976) | enzyme activity, inhibitor | – | 1 µM | inhibition | 8.8% |
| C[C@H](NC(=O)[C@H](CCC(N)=O)NC(=O)[C@H](CCCNC(=N)N)NS(C)(=O)=O)C(=O)N[C@H](CCCNC(=N)N)C(=O)c1nc2ccccc2s1 | TMPRSS2 | enzyme activity, inhibitor | – | 1 nM | activity vs control | 20% |
| CC(C)C[C@H](NC(=O)[C@H](Cc1ccccc1)NC(=O)[C@H](Cc1ccccc1)NC(=O)Cc1ccc(-c2ccccc2)cc1)C(=O)N[C@@H](CCCCN)C(=O)N[C@@H](CCCNC(=N)N)C(=O)N[C@H](C(=O)N[C@@H](Cc1c[nH]c2ccccc12)C(=O)N[C@@H](CCCCN)C(=O)N[C@@H](CCCNC(=N)N)C(=O)O)C(C)C | – | metabolic stability, mass spectrometry | mouse, liver microsomes | 30 min | compound remaining | 20.1% |
| CCN(CC)CCCC[C@H](NC(=O)[C@H](CC(C)C)NC(=O)[C@H](C)NC(=O)[C@H](Cc1ccccc1)NC(=O)c1ccc(C(C)(C)C)cc1)C(=O)N[C@@H](CO)C(=O)OC | Bromodomain-containing protein 3, BD1 (BRD3, Homo sapiens, UniProt Q15059) | thermal stability, DSF | – | 25 µM | ΔTm | 0.53 °C |
| Nc1ncc(-c2nc(N3CCOCC3)nc(N3CCOCC3)n2)c(C(F)F)n1 | PIK3CB (Homo sapiens, UniProt P42338) | binding, competition with immobilised ligand | – | 10 µM | remaining binding | 0% |
| COc1cc(CCNC(C)c2ccccc2O)c(OC)cc1C#N (stereo not drawn) | HTR2C (Homo sapiens, UniProt P28335) | G protein activation, agonist, BRET | – | – | Emax | 123% |
| O=C(c1ccc(Cl)cc1)N1CCCC(C(=O)N(Cc2nnc(-c3ccccc3Cl)o2)C2CC2)C1 (stereo not drawn) | PFF0160c (Plasmodium falciparum, UniProt Q08210, E182D) | enzyme activity, inhibitor, absorbance | – | – | IC50 | 756 nM |
| CCCCCn1c(O)c(N=NC(=O)c2ccccc2)c2ccccc21 | CNR1 (Homo sapiens, UniProt P21554) | β-arrestin recruitment, agonist | HEK293 | – | Emax | 82.5% |

A few entries again:
| SMILES | tested on | test | test system | setting | measurement | result |
| --- | --- | --- | --- | --- | --- | --- |
| CCCCCn1c(O)c(N=NC(=O)c2ccccc2)c2ccccc21 | CNR1 (Homo sapiens, UniProt P21554) | β-arrestin recruitment, agonist | HEK293 | – | Emax | 82.5% |
| CC(C)C[C@H](NC(=O)[C@H](Cc1ccccc1)NC(=O)[C@H](Cc1ccccc1)NC(=O)Cc1ccc(-c2ccccc2)cc1)C(=O)N[C@@H](CCCCN)C(=O)N[C@@H](CCCNC(=N)N)C(=O)N[C@H](C(=O)N[C@@H](Cc1c[nH]c2ccccc12)C(=O)N[C@@H](CCCCN)C(=O)N[C@@H](CCCNC(=N)N)C(=O)O)C(C)C | – | metabolic stability, mass spectrometry | mouse, liver microsomes | 30 min | compound remaining | 20.1% |
